Results collected from several papers.
Compare with care: the assays were run in different laboratories. ± gives the spread as reported.

SMILES	test	test system	conditions	quantity	result
CCc1ccc(CC/C=C/c2ccc3c(c2)C(=O)CC3)cc1	–	Sprague-Dawley rat, male, blood	oral, 450 mg/kg/day, 14 days	platelet distribution width	49.8%
CC(C)(C)c1cc(-n2nc3ccccc3n2)c(O)c(C(C)(C)C)c1	–	human aged 11-16 years	concentration not given, sunscreen, 95th percentile	daily dermal exposure dose	4.63 ng/kg/day
Cn1c(-c2ccc(C(N)=O)cc2F)nnc1C(C)(C)Oc1c(F)cc(Cl)cc1F	–	human	oral, 6 mg, single ascending dose	medical device site reaction TEAE	33.3%
COc1ccc(-c2c(-c3ccc(C#N)c(F)c3)nc(N3CCC(N)CC3)n(C)c2=O)cc1F	refers to: Constipation	neuroendocrine neoplasm patients	oral, 60 mg, any grade, dose expansion	treatment-related adverse event incidence	6%
CC1(C)c2nc(-c3ccc(F)cc3)c(Nc3ccc(F)cc3)n2CCN1C(=O)CN	–	NMRI mouse Plasmodium berghei-infected, blood	oral, 2 mg/kg, 24 h, monotherapy	concentration at 24 h	12 nM
O=S(=O)(Nc1ccccc1)c1ccc(NC(=S)Nc2ccccc2)cc1	–	mouse, male, blood	oral, 5 mg/kg daily, 14 days	mean corpuscular haemoglobin	15 pg
O=C1Nc2cc3[nH]nc(-c4ccncc4)c3cc2CN1Cc1ccccc1	CTCAE v4.03	advanced solid tumour patients	intravenous, 7.2 mg/kg	patients with diarrhoea	67%
C[C@@H]1NC(=O)[C@H](CCCCNC(=O)CO/N=C/C(=O)NCCCC[C@@H]2NC(=O)[C@@H](Cc3ccccc3)NC(=O)[C@H](CC(=O)O)NC(=O)CNC(=O)[C@H](CCCNC(=N)N)NC2=O)NC(=O)CNC(=O)[C@@H]2CCCN2C(=O)[C@H](CCCCNC(=O)CO/N=C/C(=O)NCCCC[C@@H]2NC(=O)[C@@H](Cc3ccccc3)NC(=O)[C@H](CC(=O)O)NC(=O)CNC(=O)[C@H](CCCNC(=N)N)NC2=O)NC(=O)[C@H](CCCCNC(=O)CCNC(=O)CCNC(=O)CCNC(=O)[C@H](CCCCN)NC(=O)[C@H](Cc2ccccc2)NC(=O)CNC(=O)CN2CCCNCCNCCCNCC2)NC(=O)[C@H](CCCCNC(=O)CO/N=C/C(=O)NCCCC[C@@H]2NC(=O)[C@@H](Cc3ccccc3)NC(=O)[C@H](CC(=O)O)NC(=O)CNC(=O)[C@H](CCCNC(=N)N)NC2=O)NC(=O)CNC(=O)[C@@H]2CCCN2C(=O)[C@H](CCCCNC(=O)CO/N=C/C(=O)NCCCC[C@@H]2NC(=O)[C@@H](Cc3ccccc3)NC(=O)[C@H](CC(=O)O)NC(=O)CNC(=O)[C@H](CCCNC(=N)N)NC2=O)NC1=O [copper-64 labelled]	–	normal mice, intestine	intravenous, 0.74 MBq, 24 h post-injection	tissue uptake	0.93 ± 0.07 %ID/g
COc1cc([C@@H]2c3cc4c(cc3[C@H](O)[C@H]3COC(=O)[C@H]23)OCO4)cc(OC)c1OC	osmotic fragility	human erythrocytes	20 µM	mean erythrocyte fragility	0.75%
CC[C@H](C)[C@H](NC(=O)[C@H](Cc1ccccc1)NC(=O)[C@H](CCC(=O)O)NC(=O)[C@H](CCCNC(=N)N)NC(=O)[C@H](C)NC(=O)[C@H](C)NC(=O)[C@H](CCC(N)=O)NC(=O)[C@H](CCC(=O)O)NC(=O)[C@H](CCC(=O)O)NC(=O)[C@H](CC(C)C)NC(=O)[C@H](Cc1ccc(O)cc1)NC(=O)[C@H](CO)NC(=O)[C@H](CO)NC(=O)[C@@H](NC(=O)[C@H](CC(=O)O)NC(=O)[C@H](CO)NC(=O)[C@@H](NC(=O)[C@H](Cc1ccccc1)NC(=O)[C@@H](NC(=O)CNC(=O)[C@H](CCC(=O)O)NC(=O)[C@H](C)NC(=O)CCc1cnc[nH]1)[C@@H](C)O)[C@@H](C)O)C(C)C)C(=O)N[C@@H](C)C(=O)N[C@@H](Cc1c[nH]c2ccccc12)C(=O)N[C@@H](CC(C)C)C(=O)N[C@H](C(=O)N[C@@H](CCCNC(=N)N)C(=O)NCC(=O)N[C@@H](CCCNC(=N)N)C(=O)N[C@@H](CCCCNC(=O)COCCOCCNC(=O)COCCOCCNC(=O)CC[C@H](NC(=O)CCCCCCCCCCCCCCCCC(=O)O)C(=O)O)C(=O)NCC(=O)NCC(=O)N[C@@H](CO)C(=O)N[C@@H](CCCCNC(=O)[C@H](CCCCNc1c(NCCCCCN(O)C(=O)CCC(=O)NCCCCCN(O)C(=O)CCC(=O)NCCCCCN(O)C(C)=O)c(=O)c1=O)Nc1c(NCCCCCN(O)C(=O)CCC(=O)NCCCCCN(O)C(=O)CCC(=O)NCCCCCN(O)C(C)=O)c(=O)c1=O)C(=O)O)C(C)C [zirconium-89 labelled]	ex vivo gamma counting	male Sprague-Dawley rats, muscle	intravenous, 1 nmol, 24 h	tissue uptake	0.082 %ID/g
CN1CC[C@@H](c2c(O)cc(O)c3c(=O)cc(-c4ccc(C(F)(F)F)cc4Cl)oc23)[C@@H]1CO	refers to: Constipation	AML	oral, 100 mg, intermittent dosing	patients with adverse event	0%
COc1cc2c(Oc3ccc4[nH]c(C)cc4c3F)ccnc2cc1OCC1(N)CC1	refers to: grade 1 or 2 intestinal obstruction	paediatric high-risk refractory sarcoma	8 mg	incidence of adverse event	0%
C[C@H]1CN(C(=O)CC#N)[C@]12CCN(c1ncnc3[nH]ccc13)C2	–	minipig, male	dermal, 12 mg/kg repeated, 1 months	AUC at NOAEL	21 ng·h/mL

For quick reference, copied from above:
SMILES	test	test system	conditions	quantity	result
CN1CC[C@@H](c2c(O)cc(O)c3c(=O)cc(-c4ccc(C(F)(F)F)cc4Cl)oc23)[C@@H]1CO	refers to: Constipation	AML	oral, 100 mg, intermittent dosing	patients with adverse event	0%
